Measurements from different studies.
A part holds a random share of what one study measured.

Sample 1 — method: protein-binding microarray; molecule type: double-stranded DNA, one strand shown; medium: in vitro; tested at: 940 nM top; setting: 60-bp whole probe; together with: salmon DNA 0.4 mg/ml; reference: random background probes; direction: higher = stronger binding; constant ends, left off below: GCCTAGCAC … GTCTTGATTCGCTTGACGCTGCTG
Target: Interferon regulatory factor 5, full length, phosphomimetic (IRF5, Homo sapiens, UniProt Q13568-2, residues 1-514, S451D/S453D/S456D/S462D)
| Strand | fitted relative affinity [z-score] |
| --- | --- |
| GACGGACTGGCTATCGGGACGTGCTAG | -0.679 |
| TGATGTCTGGGTCTTGGTTCGTGCTAG | -0.189 |
| TCATATTTGTCCCTATTACTGTGCTAG | 1.05 |
| GACGGACTGCTTCTACTGACGTGCTAG | -0.188 |
| TTAGGTATCGGGCTTCGGTTAGTGCTA | 4.09 |
| TACGGACTGGGTTTCGGGACGTGCTAG | 2.38 |
| TTACATATCAGTCTCGATTAGTGCTAG | 3.62 |

Sample 2 — method: universal PBM; molecule type: double-stranded DNA, one strand shown; medium: in vitro; tested at: not given; direction: higher = stronger binding
Target: Sal-like protein 4, full length isoform B (SALL4, Homo sapiens, UniProt Q9UJQ4-2, residues 1-616)
Setting: 8-mer, flanks averaged, mean of replicates
| Strand | E-score |
| --- | --- |
| AACATCCT | 0.0109 |
| CATACGGC | -0.0234 |
| ATTACGCC | 0.09 |
| AGCCAGGA | -0.144 |
| ATTAACTG | 0.334 |

Sample 3 — method: protein binding microarray; molecule type: double-stranded DNA, one strand shown; medium: in vitro; tested at: not given; reference: not given; direction: higher = stronger binding
Target: Histone acetyltransferase KAT6A, winged helix 2, GST fusion (KAT6A, Homo sapiens, UniProt Q92794, residues 85-181)
Setting: 8-mer, flanks averaged, mean of 2 arrays, mostly near background
Construct (chain): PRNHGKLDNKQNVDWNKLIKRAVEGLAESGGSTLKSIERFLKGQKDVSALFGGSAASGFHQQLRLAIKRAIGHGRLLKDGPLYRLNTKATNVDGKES
| Strand | E-score |
| --- | --- |
| AGAACAAA | 0.139 |
| ATCCGCAG | 0.204 |
| CCCTGACG | -0.0254 |
| ACTTATCC | -0.117 |
| ACTCGAAT | -0.0281 |
| CCCAGTCC | -0.0271 |
| GGTTAACC | 0.103 |

Further values, each from its own experiment
| Substance | target | test | test system | conditions | how to read | quantity | result |
| --- | --- | --- | --- | --- | --- | --- | --- |
| PhoQ, residues 284 288 289 292 302 303 MLMVEA | PhoP, residues 12 14 15 18 19 GQALL (Escherichia coli, UniProt P23836) | Sort-seq, measured: YFP reporter | E. coli | PhoQ-PhoP variant library, together with: 10 µM Mg2+ | reference: high Mg2+ state, higher = stronger signaling | fold induction | 20 |
